Experimental data pooled from the literature.
A part holds a random share of what one study measured. Positions count from the first letter of the parent shown.

Study 1
Target: RNA binding protein fox-1 homolog 2, RRM domain, GST-SBP tag (RBFOX2, Homo sapiens, UniProt O43251-10, residues 100-194)
Method: RNA Bind-n-Seq
Molecule type: RNA
Sample: in vitro
Tested at: 365 nM
Notes: natural RNA segment, single round, ends assumed
Reference: no-protein control
Reading: higher = stronger binding
Endpoint: RBNS enrichment (R)
All sequences stand within: GGGAGUUCUACAGUCCGACGAUC … UGGAAUUCUCGGGUGCCAA
Construct (chain): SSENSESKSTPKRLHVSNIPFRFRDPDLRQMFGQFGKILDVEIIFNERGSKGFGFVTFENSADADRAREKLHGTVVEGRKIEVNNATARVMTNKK
CCUUUUCUUUGGGCUUGACACCUGUCUUGAAUAAGAGUGAUUAGAGCUGCAUAAUGUCCCUCUCUUGGCUAUUGACCAUGUGGUUCACGUACAAAACUCUGUAUAAGUUG: 1.23
CAAAUGGAGAAUGAGCAUCUAAAAAUGACACAUCCCGAAAGGGCAAUCUGUGGAAGUUUGUUGUUUGUUUGUUUUUAUUUUUAAAUGCAUUGUAAAGUGUACUCUAGAGC: 0.428
CACACAUCUUGCAUGGAUGGCAGCAUUGUUCUGAAGGGGUUUGCAGAAAAAAAAGAUUUUCUUUACAUAAAGUGAAUCAAAUUUGACAUUAUUUUAGAUCCCAGAGAAAU: 1.29
ACAGAAAGUUGGAUUCCUGGGAUGUUUGCACAUCAACUGCUCAACUGUGGAUUGUUUUUUACUUUUCCUUUUAAACCGGUUCGUAUAUAUUUUUCUUCGCUGUUACGAAU: 1.01
UUGCAGAGUUCUUACCAUUCCUGUAAAUGUUUUGACUUGUUGCAGAAAUUCCUAUCUACUUUAUUAAGCAGUAUUGAUCUGACUGUGGAAACAUCCUCUCACUUGCAUUC: 0.605
AGCAAAGUCUUCUGUUGGCCUUUGGAACAGGAGAGUCCCCGGAAUCUAGGACCCUAGUCUUUGUACUUGAUGCCUUGUUUCCCCCCUUUUCUUCUUUAAAAUUGGGGACC: 0.275
CCAGGCAGAGUAUAAAAGCAAUCUAUAUAUCAUUAAGCUGUGGAAGCUACAUUGGCAGCAGCGAAUGUUGCAGCUUCUUGUGCAAGUACACCCUUCAUGGAAGUGUUGAC: 0.393
UAUUUAUUUGUACCCACCCUUCCCUCACUUCUGCCCAGCUGGGCUCCAGAGAGAGGACCCUGCCCAUCCUCCUUUUGAAGCCAGGACUUAUUCUUGGUUCAUCAUACUCC: 0.544

Study 2
Target: ABI1, truncated, D143A, DHFR fusion (Arabidopsis thaliana)
Method: DHFR PCA, deep sequencing
Sample: yeast
Notes: methotrexate growth selection, single substitutions
With: (+)-ABA 17 µM
Reference: wild-type fitted maximum
Reading: higher = stronger binding
Endpoint: relative binding score
Parent: PYL1, truncated, DHFR fusion (Arabidopsis thaliana); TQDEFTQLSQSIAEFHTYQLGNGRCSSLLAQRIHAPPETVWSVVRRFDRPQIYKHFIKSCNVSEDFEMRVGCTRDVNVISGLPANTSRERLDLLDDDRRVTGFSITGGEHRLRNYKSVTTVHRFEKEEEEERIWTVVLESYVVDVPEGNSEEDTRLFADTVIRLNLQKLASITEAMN; partner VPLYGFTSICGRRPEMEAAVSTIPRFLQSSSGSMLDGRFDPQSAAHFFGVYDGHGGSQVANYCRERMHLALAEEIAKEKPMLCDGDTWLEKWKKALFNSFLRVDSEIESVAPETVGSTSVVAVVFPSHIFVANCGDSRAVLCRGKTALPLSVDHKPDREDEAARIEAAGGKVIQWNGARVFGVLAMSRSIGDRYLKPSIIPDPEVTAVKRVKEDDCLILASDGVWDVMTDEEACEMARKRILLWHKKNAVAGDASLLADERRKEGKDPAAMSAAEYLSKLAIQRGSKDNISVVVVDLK
L93R: 80%
V121C: 49.6%
L82D: -11.3%
I133W: 73.4%
I79D: 8.54%
A158Q: 7.43%
L138E: -2.41%
S9I: 60.3%

Study 3
Target: CCNE2, cyclin fold, Cln2 fusion (human)
Method: yeast growth competition, sequencing
Sample: yeast
Notes: strong parent motif
Reference: not given
Reading: higher = stronger binding
Endpoint: normalised enrichment score
Parent: WEE1 docking peptide (human); HKTFRKLRLFDTP; partner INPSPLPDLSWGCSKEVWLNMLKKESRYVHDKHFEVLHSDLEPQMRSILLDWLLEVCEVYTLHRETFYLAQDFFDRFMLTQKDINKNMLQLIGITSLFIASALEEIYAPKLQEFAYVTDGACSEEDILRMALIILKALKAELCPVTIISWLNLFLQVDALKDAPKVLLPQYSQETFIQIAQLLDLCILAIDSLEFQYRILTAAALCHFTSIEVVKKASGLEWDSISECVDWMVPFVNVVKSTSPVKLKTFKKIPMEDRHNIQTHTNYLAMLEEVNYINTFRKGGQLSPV
HKTFRKLRLFDPP [T12P]: 0.733
HKTFRKLRLFDAP [T12A]: 0.271
HKCFRKLRLFDTP [T3C]: 0.111
HKQFRKLRLFDTP [T3Q]: 0.193
HKTFRKWRLFDTP [L7W]: 1.04
HKTFRKGRLFDTP [L7G]: 1.19
HHTFRKLRLFDTP [K2H]: 1.1
HKTFRKLTLFDTP [R8T]: 0.593
HKTFRKLRVFDTP [L9V]: 0.891
HKTFMKLRLFDTP [R5M]: 1.1
HKTFRKLRLFDIP [T12I]: 0.862
HKTFRKLRLFCTP [D11C]: 1.28
HITFRKLRLFDTP [K2I]: 0.844
SKTFRKLRLFDTP [H1S]: 1.34
HLTFRKLRLFDTP [K2L]: 0.561
FKTFRKLRLFDTP [H1F]: -0.286
HKTYRKLRLFDTP [F4Y]: 0.648

Further values, each from its own experiment
PhoQ, residues 284 288 289 292 302 303 ASSHFY — fold induction (PhoP, residues 12 14 15 18 19 AYFRS (Escherichia coli, UniProt P23836); Sort-seq, measured: YFP reporter; E. coli; PhoQ-PhoP variant library, with: 10 µM Mg2+; reference: high Mg2+ state, higher = stronger signaling): 7.08

Excerpt of the above (study 2):
A158Q: 7.43%
L82D: -11.3%
S9I: 60.3%
V121C: 49.6%
